Results gathered from unrelated publications.
Chain of UniProt O43684 (whole entry, looked up): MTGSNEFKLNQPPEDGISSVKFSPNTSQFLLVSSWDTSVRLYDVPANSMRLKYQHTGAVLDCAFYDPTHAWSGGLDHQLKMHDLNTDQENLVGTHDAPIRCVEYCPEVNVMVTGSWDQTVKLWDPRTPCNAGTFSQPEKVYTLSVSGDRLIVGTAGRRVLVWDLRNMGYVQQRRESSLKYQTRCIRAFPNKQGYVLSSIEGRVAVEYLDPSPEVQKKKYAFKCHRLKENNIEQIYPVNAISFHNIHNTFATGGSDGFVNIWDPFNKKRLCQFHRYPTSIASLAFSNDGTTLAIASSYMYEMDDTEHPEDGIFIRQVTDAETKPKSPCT
Chain of UniProt O95136 (whole entry, looked up): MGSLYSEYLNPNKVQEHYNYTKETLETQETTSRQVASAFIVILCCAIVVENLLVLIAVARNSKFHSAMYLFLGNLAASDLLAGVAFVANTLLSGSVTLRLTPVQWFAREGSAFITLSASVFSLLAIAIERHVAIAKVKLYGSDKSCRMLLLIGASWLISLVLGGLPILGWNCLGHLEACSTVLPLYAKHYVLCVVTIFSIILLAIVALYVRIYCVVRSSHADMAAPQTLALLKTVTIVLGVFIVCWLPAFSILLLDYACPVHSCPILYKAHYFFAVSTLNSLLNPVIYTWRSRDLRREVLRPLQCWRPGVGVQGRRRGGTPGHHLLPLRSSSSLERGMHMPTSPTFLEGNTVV
Chain of UniProt Q14449 (whole entry, looked up): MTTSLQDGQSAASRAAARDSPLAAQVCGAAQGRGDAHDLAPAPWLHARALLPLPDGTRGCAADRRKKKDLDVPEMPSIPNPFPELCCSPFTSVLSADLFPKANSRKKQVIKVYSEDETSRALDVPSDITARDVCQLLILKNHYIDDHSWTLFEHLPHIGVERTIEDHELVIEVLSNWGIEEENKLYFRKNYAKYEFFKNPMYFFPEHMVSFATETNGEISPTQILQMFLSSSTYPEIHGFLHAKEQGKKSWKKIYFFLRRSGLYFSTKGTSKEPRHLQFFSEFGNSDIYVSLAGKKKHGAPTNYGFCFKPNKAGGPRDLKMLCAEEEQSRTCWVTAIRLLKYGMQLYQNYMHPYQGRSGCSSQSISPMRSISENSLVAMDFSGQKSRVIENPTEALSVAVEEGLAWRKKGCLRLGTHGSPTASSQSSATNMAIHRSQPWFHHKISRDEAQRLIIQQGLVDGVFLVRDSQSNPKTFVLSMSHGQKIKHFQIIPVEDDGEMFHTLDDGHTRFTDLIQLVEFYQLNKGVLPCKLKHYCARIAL
Chain of UniProt O95819 (whole entry, looked up): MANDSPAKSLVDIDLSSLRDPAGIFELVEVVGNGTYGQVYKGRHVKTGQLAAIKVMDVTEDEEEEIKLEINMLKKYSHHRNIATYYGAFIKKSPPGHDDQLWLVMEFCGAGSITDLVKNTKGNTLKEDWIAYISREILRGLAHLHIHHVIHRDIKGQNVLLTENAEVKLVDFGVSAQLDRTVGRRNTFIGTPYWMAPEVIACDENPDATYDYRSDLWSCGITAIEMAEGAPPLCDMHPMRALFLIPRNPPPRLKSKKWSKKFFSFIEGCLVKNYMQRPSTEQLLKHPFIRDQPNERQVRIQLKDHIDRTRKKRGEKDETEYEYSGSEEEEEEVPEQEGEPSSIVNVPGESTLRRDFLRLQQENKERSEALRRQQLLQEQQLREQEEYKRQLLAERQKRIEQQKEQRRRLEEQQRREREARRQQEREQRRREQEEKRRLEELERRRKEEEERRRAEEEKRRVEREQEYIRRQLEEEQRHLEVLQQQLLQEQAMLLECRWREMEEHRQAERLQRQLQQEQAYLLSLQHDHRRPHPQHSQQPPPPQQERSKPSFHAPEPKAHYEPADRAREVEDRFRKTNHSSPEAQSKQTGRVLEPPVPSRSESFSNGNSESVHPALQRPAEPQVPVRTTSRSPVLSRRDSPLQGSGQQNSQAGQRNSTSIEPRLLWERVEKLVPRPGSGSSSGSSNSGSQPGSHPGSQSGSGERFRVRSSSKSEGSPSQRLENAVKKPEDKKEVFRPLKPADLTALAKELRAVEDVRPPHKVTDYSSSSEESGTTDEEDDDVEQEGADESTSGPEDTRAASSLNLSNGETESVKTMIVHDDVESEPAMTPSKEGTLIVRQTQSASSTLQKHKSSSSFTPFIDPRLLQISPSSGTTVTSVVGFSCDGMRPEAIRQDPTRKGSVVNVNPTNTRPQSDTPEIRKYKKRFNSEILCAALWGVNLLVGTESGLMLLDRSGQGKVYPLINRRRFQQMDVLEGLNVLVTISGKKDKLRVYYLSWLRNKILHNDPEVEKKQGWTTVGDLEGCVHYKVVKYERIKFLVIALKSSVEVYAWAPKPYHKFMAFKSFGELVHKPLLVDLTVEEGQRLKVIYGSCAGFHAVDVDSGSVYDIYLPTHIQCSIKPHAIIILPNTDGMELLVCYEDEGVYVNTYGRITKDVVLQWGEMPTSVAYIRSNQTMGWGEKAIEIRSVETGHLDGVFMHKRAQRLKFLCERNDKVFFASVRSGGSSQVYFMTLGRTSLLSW
Chain of UniProt P32245 (whole entry, looked up): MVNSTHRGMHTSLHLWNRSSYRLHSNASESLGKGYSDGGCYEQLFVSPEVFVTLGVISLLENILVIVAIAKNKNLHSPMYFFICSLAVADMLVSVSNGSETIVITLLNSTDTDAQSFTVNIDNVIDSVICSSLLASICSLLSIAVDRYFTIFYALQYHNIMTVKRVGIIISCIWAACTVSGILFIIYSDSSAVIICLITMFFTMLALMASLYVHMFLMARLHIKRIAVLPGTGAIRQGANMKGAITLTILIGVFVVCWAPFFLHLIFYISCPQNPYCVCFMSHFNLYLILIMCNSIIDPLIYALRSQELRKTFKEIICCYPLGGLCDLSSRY

Structure (SMILES) | tested on | assay | test system | conditions | how to read | measurement | result
COc1cc2c(Oc3ccc4[nH]c(C)cc4c3F)ccnc2cc1OCC1(N)CC1 |  |  | paediatric recurrent refractory sarcoma | 8 mg |  | grade 1 or 2 Appendicitis | 0%
CCN(CCO)CCCC(C)Nc1ccnc2cc(Cl)ccc12 (stereo not drawn) |  |  | newly diagnosed glioblastoma patients | oral, 400 mg/dose, grade 2, together with: radiotherapy and temozolomide |  | fatigue patients | 43%
O=C1Nc2cc3[nH]nc(-c4ccncc4)c3cc2CN1Cc1ccccc1 |  | CTCAE v4.03 | advanced solid tumour patients | intravenous, 0.9 mg/kg, schedules 1/2 |  | patients with constipation | 0%
COc1cc(Nc2ncc(F)c(Nc3ccc4c(n3)NC(=O)C(C)(C)O4)n2)cc(OC)c1OC | Melanocortin receptor 4 (MC4R, Homo sapiens, UniProt P32245) |  |  |  |  | IC50 | > 10 µM
C[C@H]1CN(c2n[nH]c3nc(N[C@H]4CC[C@H](NS(=O)(=O)CCC(F)(F)F)CC4)ncc23)CCO1 | Mitotic checkpoint protein BUB3 (Homo sapiens, UniProt O43684) | Kinobeads competition, item: BUB3 |  | 0.032 µM, unit not given | reference: vehicle | remaining binding | 1.53
CC[C@H](C)[C@@H]1NC(=O)[C@@H]2CCCN2C(=O)[C@H](CC(C)C)NC(=O)[C@H](CC(C)C)NC(=O)CNC(=O)[C@@H](NC(=O)[C@@H](NC(=O)[C@H](CC(=O)O)NC(=O)CNC(=O)[C@@H](NC(=O)[C@H](C)NC(=O)CNC(=O)[C@H](CCCCN)NC(=O)[C@H](CC(C)C)NC(=O)[C@H](CC(C)C)NC(=O)[C@H](CCCCN)NC(=O)CNC(=O)[C@@H](NC(=O)[C@@H](N)CC(C)C)C(C)C)C(C)C)C(C)C)CSSC[C@@H](C(=O)O)NC1=O |  | RNA-seq, item: Plscr1 | mouse, traumatic brain injury model, frontal cortex and hippocampus | dose not given | reference: TBI alone | log2 fold change | -2.07
CC[C@H](C)CCCCC(=O)N[C@@H](CCN)C(=O)N[C@H](C(=O)N[C@@H](CCN)C(=O)N[C@H]1CCNC(=O)[C@H]([C@@H](C)O)NC(=O)[C@H](CCN)NC(=O)[C@H](CCN)NC(=O)[C@H](CC(C)C)NC(=O)[C@@H](Cc2ccccc2)NC(=O)[C@H](CCN)NC1=O)[C@@H](C)O |  |  | critically ill patients, plasma | intravenous, 2.1 mg/kg/day, median |  | AUC(0-24 h) at steady state | 78300 ng·h/mL
CN1CCN(c2cc(-c3ccncc3)c(-c3ccc4ccccc4c3)nn2)CC1 | Sphingosine 1-phosphate receptor 2 (S1PR2, Homo sapiens, UniProt O95136) | agonist, FLIPR |  | 12.5 µM |  | activation | 0.5%
CCCCCCCCCCCCCCCC(=O)N[C@@H](CCC(=O)NCCCC[C@H](NC(=O)[C@H](CC(=O)O)NC(=O)[C@H](CO)NC(=O)[C@@H](NC(=O)[C@H](Cc1ccccc1)NC(=O)[C@@H](NC(=O)CNC(=O)[C@H](CCC(N)=O)NC(=O)[C@H](CO)NC(=O)[C@@H](N)Cc1c[nH]cn1)[C@@H](C)O)[C@@H](C)O)C(=O)N[C@@H](CO)C(=O)N[C@@H](CCC(=O)O)C(=O)N[C@@H](Cc1ccc(O)cc1)C(=O)N[C@@H](CC(C)C)C(=O)N[C@@H](CC(=O)O)C(=O)N[C@@H](CO)C(=O)N[C@@H](CCC(=O)O)C(=O)N[C@@H](CCCNC(=N)N)C(=O)N[C@@H](C)C(=O)N[C@@H](CCCNC(=N)N)C(=O)N[C@@H](CC(=O)O)C(=O)N[C@@H](Cc1ccccc1)C(=O)N[C@H](C(=O)N[C@@H](C)C(=O)N[C@@H](Cc1c[nH]c2ccccc12)C(=O)N[C@@H](CC(C)C)C(=O)N[C@@H](CCC(=O)O)C(=O)N[C@@H](C)C(=O)NCC(=O)NCC(=O)O)C(C)C)C(=O)O |  | item: Tachycardia | humans CrCl 20 to 30 mL/min | subcutaneous, 100 µg single dose |  | treatment-related adverse events | 12.5%
O=C(O)C[C@H](NC(=O)[C@H](CC(=O)O)NC(=O)[C@H](CC(=O)O)NC(=O)[C@H](CC(=O)O)NC(=O)[C@H](CC(=O)O)NC(=O)[C@H](CC(=O)O)NC(=O)[C@H](CC(=O)O)NC(=O)[C@H](CC(=O)O)NC(=O)[C@H](CC(=O)O)NC(=O)[C@H](CC(=O)O)NC(=O)[C@H](CC(=O)O)NC(=O)[C@H](CCCCNC(=O)c1ccc(C(=O)NCCOCCOB2BBBBBB3BBBB3B2)cc1)NC(=O)CN1CCN(CC(=O)O)CCN(CC(=O)O)CCN(CC(=O)O)CC1)C(=O)O [gallium-67 labelled] |  | gamma counting | ddY mouse, male, 6 weeks old, small intestine | intravenous, 37 kBq, 10 min |  | tissue uptake | 0.59 %ID/g
C[C@]1(CO)Cc2ncn(-c3ccc(C#N)c(Cl)c3)c2C(=O)O1 |  |  | healthy humans | oral, 10 mg | reference: fasted | AUC0–∞ ratio fed over fasted | 103%
C[C@H]1CN(C(=O)CC#N)[C@]12CCN(c1ncnc3[nH]ccc13)C2 |  |  | rat, male | oral, 3 mg/kg, 6 months, repeated dose toxicity |  | exposure multiple over human | 161 /580
CSCC[C@H](NC(=O)CNC(=O)[C@H](Cc1ccccc1)NC(=O)[C@H](CC(=O)O)NC(=O)CNC(=O)c1ccc2c(c1)C(=O)OC21c2ccc(N(C)C)cc2Oc2cc(N(C)C)ccc21)C(=O)N[C@@H](CO)C(=O)N[C@@H](CCCNC(=N)N)C(=O)N[C@@H](CC(=O)O)C(=O)N[C@H](C(=O)N[C@@H](Cc1ccc(OP(=O)(O)O)cc1)C(=O)N[C@@H](CO)C(=O)N[C@H](C(=O)N[C@@H](CC(=O)O)C(=O)N[C@@H](Cc1ccc(O)cc1)C(=O)N[C@@H](Cc1ccc(O)cc1)C(=O)N[C@@H](CCCNC(=N)N)C(=O)N[C@H](C(=O)N[C@@H](CC(=O)O)C(=O)O)C(C)C)[C@@H](C)O)C(C)C | Growth factor receptor-bound protein 14, SH2 domain (GRB14, Homo sapiens, UniProt Q14449) | binding |  |  |  | Kd | 1.51 µM
CCc1ccc(CC/C=C/c2ccc3c(c2)C(=O)CC3)cc1 |  |  | Sprague-Dawley rat, male | oral, 30 mg/kg/day, 14 days |  | Reticulocyte percentage | 6.49%
O=C(Nc1ccccc1)C1CCN(C(=O)Oc2cccnc2)CC1 |  |  | healthy women | oral, 60 mg, 7 days |  | adverse event Somnolence | 7.1%
CC1(C)C(=O)N(c2ccc(C#N)c(C(F)(F)F)c2)C(=S)N1c1ccc(C(N)=O)c(F)c1 |  | population PK base model | human | dose not given |  | peripheral volume of distribution | 49.5 L
COc1ccc([C@@H](O)c2cc(-c3ncnc4cc(N5CCOCC5)ccc34)c(F)cc2Cl)nn1 |  |  | patients, advanced solid tumours | oral, 300 mg twice daily, treatment-emergent, together with: avelumab | reference: patients | vascular disorders incidence | 2%
Cn1c(-c2ccc(C(N)=O)cc2F)nnc1C(C)(C)Oc1c(F)cc(Cl)cc1F |  |  | human | oral, 6 mg, single ascending dose |  | vessel puncture site pain | 0%
C[C@@H](NC(=O)N1C(=O)[C@H](Cc2ccnc(N)c2)[C@H]1C(=O)O)C1CCCCC1 |  |  | healthy Chinese adults | continuous intravenous infusion, 1.0 mg/kg/h, 5.0 days |  | urine leukocyte-positive | 0%
C=CC(=O)Nc1cc(Nc2nccc(Nc3cc(Cl)c(F)cc3C(C)(C)O)n2)c(OC)cc1N1CC[C@@H](N(C)C)C1 |  | treatment-emergent adverse events | human | oral, 100 mg, phase I clinical trial |  | incidence of blood creatinine increased | 11.1%
COc1ccc(N2C(=O)N(c3c(C)cccc3Cl)Cc3cnc(Nc4ccc(C5CCN(C)CC5)cc4OC)nc32)nc1 | Mitogen-activated protein kinase kinase kinase kinase 4 (MAP4K4, Homo sapiens, UniProt O95819) | kinase activity |  | 0.5 µM |  | inhibition | 29%

Excerpt of the above:
Structure (SMILES) | tested on | assay | test system | conditions | how to read | measurement | result
CCCCCCCCCCCCCCCC(=O)N[C@@H](CCC(=O)NCCCC[C@H](NC(=O)[C@H](CC(=O)O)NC(=O)[C@H](CO)NC(=O)[C@@H](NC(=O)[C@H](Cc1ccccc1)NC(=O)[C@@H](NC(=O)CNC(=O)[C@H](CCC(N)=O)NC(=O)[C@H](CO)NC(=O)[C@@H](N)Cc1c[nH]cn1)[C@@H](C)O)[C@@H](C)O)C(=O)N[C@@H](CO)C(=O)N[C@@H](CCC(=O)O)C(=O)N[C@@H](Cc1ccc(O)cc1)C(=O)N[C@@H](CC(C)C)C(=O)N[C@@H](CC(=O)O)C(=O)N[C@@H](CO)C(=O)N[C@@H](CCC(=O)O)C(=O)N[C@@H](CCCNC(=N)N)C(=O)N[C@@H](C)C(=O)N[C@@H](CCCNC(=N)N)C(=O)N[C@@H](CC(=O)O)C(=O)N[C@@H](Cc1ccccc1)C(=O)N[C@H](C(=O)N[C@@H](C)C(=O)N[C@@H](Cc1c[nH]c2ccccc12)C(=O)N[C@@H](CC(C)C)C(=O)N[C@@H](CCC(=O)O)C(=O)N[C@@H](C)C(=O)NCC(=O)NCC(=O)O)C(C)C)C(=O)O |  | item: Tachycardia | humans CrCl 20 to 30 mL/min | subcutaneous, 100 µg single dose |  | treatment-related adverse events | 12.5%
O=C(O)C[C@H](NC(=O)[C@H](CC(=O)O)NC(=O)[C@H](CC(=O)O)NC(=O)[C@H](CC(=O)O)NC(=O)[C@H](CC(=O)O)NC(=O)[C@H](CC(=O)O)NC(=O)[C@H](CC(=O)O)NC(=O)[C@H](CC(=O)O)NC(=O)[C@H](CC(=O)O)NC(=O)[C@H](CC(=O)O)NC(=O)[C@H](CC(=O)O)NC(=O)[C@H](CCCCNC(=O)c1ccc(C(=O)NCCOCCOB2BBBBBB3BBBB3B2)cc1)NC(=O)CN1CCN(CC(=O)O)CCN(CC(=O)O)CCN(CC(=O)O)CC1)C(=O)O [gallium-67 labelled] |  | gamma counting | ddY mouse, male, 6 weeks old, small intestine | intravenous, 37 kBq, 10 min |  | tissue uptake | 0.59 %ID/g
C[C@]1(CO)Cc2ncn(-c3ccc(C#N)c(Cl)c3)c2C(=O)O1 |  |  | healthy humans | oral, 10 mg | reference: fasted | AUC0–∞ ratio fed over fasted | 103%
